Experimental data gathered from unrelated publications.
A part holds a random share of what one study measured. “And” joins repeats or separate records; there may be more than shown.
UniProt Q9UBF8, sequence (whole entry, looked up): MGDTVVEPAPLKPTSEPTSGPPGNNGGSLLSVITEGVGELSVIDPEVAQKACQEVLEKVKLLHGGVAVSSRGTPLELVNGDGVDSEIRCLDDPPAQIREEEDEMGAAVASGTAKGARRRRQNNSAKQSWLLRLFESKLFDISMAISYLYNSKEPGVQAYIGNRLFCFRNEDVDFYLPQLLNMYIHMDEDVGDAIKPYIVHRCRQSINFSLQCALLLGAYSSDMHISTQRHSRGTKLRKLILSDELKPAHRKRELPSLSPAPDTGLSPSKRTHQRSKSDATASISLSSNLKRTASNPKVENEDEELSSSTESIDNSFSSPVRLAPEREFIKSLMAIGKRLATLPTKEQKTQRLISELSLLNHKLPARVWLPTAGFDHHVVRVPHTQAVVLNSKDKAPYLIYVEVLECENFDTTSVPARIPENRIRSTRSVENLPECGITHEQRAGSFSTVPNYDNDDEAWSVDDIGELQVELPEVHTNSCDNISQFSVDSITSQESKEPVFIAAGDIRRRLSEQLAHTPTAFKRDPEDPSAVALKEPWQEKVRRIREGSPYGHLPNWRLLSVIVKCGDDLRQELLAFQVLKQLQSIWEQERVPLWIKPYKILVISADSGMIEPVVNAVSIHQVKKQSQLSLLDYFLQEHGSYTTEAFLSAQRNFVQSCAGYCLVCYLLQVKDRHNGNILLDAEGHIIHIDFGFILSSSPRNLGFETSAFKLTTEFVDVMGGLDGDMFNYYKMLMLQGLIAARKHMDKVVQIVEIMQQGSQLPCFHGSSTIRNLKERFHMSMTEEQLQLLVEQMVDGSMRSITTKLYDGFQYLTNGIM
UniProt P27361, sequence (whole entry, looked up): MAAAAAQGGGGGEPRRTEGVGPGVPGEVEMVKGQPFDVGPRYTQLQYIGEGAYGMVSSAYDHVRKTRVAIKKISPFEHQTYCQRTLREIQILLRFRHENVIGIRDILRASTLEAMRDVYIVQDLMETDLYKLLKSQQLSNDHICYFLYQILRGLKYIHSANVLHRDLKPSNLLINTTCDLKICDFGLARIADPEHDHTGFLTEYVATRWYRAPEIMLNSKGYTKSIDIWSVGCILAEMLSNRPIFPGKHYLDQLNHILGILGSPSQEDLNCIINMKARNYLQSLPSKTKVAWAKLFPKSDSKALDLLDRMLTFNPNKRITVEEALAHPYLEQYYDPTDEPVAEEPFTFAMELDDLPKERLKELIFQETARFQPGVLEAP
UniProt Q8NFD2, sequence (whole entry, looked up): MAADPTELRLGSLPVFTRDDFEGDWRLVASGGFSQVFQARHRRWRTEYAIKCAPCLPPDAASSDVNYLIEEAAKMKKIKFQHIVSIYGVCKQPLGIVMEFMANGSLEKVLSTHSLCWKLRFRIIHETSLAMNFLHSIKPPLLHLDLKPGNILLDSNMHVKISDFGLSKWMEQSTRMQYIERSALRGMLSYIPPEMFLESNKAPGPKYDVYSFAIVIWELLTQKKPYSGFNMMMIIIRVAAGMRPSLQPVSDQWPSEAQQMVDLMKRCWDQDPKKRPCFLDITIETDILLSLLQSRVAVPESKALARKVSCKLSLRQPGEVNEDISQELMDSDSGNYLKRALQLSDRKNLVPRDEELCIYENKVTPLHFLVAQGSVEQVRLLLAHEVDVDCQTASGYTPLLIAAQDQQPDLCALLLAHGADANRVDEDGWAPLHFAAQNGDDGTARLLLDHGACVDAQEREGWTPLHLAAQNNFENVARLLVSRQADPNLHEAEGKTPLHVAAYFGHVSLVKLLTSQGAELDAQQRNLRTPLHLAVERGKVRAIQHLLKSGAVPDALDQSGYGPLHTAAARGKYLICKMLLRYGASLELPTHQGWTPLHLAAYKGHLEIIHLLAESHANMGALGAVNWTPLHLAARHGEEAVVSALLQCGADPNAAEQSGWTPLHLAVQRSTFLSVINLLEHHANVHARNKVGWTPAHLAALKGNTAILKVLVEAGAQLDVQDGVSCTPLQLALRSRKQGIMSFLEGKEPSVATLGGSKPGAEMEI
UniProt Q5VT25, sequence (whole entry, looked up): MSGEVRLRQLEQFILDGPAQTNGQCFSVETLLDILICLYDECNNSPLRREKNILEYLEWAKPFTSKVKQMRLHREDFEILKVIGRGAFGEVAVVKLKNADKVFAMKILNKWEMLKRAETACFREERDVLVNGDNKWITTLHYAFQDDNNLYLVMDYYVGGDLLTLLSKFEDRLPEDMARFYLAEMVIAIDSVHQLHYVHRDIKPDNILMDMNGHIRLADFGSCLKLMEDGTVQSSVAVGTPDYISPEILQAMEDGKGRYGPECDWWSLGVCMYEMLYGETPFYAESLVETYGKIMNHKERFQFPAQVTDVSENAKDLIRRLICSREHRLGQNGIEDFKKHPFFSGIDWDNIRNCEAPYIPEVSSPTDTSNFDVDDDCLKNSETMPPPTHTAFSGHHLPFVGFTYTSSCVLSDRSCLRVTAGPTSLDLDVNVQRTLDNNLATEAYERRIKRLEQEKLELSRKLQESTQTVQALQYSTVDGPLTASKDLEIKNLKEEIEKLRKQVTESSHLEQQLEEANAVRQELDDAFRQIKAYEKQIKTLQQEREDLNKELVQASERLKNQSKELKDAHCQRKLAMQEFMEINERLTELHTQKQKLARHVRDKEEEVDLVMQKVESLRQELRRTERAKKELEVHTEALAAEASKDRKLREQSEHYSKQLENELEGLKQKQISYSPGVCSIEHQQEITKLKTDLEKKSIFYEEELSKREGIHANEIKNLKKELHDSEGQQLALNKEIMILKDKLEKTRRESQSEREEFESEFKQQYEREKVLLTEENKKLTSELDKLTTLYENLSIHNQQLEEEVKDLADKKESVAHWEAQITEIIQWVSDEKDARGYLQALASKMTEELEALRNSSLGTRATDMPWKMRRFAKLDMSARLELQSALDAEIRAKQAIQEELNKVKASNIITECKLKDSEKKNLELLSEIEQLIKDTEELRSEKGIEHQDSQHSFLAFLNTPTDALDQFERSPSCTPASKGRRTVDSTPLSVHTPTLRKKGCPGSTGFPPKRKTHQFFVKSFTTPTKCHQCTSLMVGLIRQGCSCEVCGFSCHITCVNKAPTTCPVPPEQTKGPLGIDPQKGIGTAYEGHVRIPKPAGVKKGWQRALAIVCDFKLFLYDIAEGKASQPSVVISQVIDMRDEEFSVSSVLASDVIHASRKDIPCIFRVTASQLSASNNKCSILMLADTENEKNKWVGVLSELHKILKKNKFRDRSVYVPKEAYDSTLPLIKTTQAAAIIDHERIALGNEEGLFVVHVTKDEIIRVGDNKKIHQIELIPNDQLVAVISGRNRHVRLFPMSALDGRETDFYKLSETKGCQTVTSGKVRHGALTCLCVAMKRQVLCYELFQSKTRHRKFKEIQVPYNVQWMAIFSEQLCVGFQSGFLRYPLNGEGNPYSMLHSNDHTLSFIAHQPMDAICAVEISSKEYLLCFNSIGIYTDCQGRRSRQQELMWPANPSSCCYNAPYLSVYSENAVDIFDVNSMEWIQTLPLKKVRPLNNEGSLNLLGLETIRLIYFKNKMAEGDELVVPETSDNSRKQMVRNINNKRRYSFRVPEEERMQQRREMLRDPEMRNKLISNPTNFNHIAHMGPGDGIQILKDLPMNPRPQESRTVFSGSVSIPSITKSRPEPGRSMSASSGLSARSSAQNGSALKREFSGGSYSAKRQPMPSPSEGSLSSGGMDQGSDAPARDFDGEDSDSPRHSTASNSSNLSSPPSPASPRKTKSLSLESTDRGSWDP
UniProt Q9H4B4, sequence (whole entry, looked up): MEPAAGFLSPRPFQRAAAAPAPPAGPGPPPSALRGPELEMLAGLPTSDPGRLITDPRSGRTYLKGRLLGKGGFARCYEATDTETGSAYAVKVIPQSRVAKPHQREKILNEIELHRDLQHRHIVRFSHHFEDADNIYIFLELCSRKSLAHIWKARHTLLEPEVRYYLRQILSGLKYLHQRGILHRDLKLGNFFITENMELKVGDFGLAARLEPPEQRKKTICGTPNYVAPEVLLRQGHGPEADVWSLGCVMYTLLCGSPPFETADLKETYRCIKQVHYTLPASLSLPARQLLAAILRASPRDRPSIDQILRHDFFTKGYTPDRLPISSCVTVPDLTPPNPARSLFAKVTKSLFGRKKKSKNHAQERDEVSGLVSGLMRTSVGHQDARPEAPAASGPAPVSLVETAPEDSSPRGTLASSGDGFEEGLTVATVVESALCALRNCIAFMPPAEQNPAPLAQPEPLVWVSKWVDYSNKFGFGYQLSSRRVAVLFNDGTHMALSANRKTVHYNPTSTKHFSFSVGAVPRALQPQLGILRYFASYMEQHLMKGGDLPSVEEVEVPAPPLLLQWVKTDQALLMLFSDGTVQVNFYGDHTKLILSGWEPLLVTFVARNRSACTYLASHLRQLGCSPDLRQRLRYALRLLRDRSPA

Set 1
SMILES: Cc1ncc(-c2cc3cc(-c4c(C)ccc(O)c4C)cnc3[nH]2)cn1
Target: Membrane-associated tyrosine- and threonine-specific cdc2-inhibitory kinase (PKMYT1, Homo sapiens, UniProt Q99640)
Residues (Q99640 1-499): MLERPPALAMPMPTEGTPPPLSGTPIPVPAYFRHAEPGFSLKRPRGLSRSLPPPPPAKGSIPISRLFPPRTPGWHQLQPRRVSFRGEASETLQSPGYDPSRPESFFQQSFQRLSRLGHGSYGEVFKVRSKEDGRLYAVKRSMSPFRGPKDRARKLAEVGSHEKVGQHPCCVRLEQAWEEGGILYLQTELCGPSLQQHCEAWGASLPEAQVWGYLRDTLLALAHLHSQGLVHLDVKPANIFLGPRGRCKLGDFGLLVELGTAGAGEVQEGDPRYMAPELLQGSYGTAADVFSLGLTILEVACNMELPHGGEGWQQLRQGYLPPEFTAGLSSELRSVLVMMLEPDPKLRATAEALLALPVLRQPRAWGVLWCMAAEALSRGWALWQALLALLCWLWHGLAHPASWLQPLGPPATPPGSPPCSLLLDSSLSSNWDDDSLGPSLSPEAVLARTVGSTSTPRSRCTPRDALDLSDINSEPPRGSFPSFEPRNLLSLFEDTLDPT
observed | method | concentration | inhibition
– | – | 0.04115 µM | 69.8%
– | – | 0.00457 µM | 14.7%
cell-free assay | TR-FRET | 13.72 nM | 39.4%
– | – | 0.00051 µM | -4.67% and 3.71%
– | – | 3.333 µM | 104%
– | – | 10 µM | 102%
– | – | 0.1235 µM | 89.8%

Set 2 — organism: Sarcocystis neurona; observed: parasite growth; concentration: 10 µM; time: 96 h; notes: first screen; baseline: untreated
SMILES | log2 fold change
Nc1nc2c(ncn2CCC(CO)CO)c(=O)[nH]1 | -0.06
CC(=O)O[C@@]12CO[C@@H]1C[C@H](O)[C@@]1(C)C(=O)[C@H](O)C3=C(C)[C@@H](OC(=O)[C@H](O)[C@@H](NC(=O)OC(C)(C)C)c4ccccc4)C[C@@](O)([C@@H](OC(=O)c4ccccc4)[C@H]21)C3(C)C | -1.14
O=C(O)CCNC(=O)c1ccc(/N=N/c2ccc(O)c(C(=O)O)c2)cc1 | 0.17
CC(=O)[C@]1(O)Cc2c(O)c3c(c(O)c2[C@@H](O[C@H]2C[C@H](N)[C@H](O)[C@H](C)O2)C1)C(=O)c1ccccc1C3=O | -5.38
CC1=C(/C=C/C(C)=C/C=C/C(C)=C\C(=O)O)C(C)(C)CCC1 | 0.15
COc1cc(/C=C/c2ccc(O)cc2)cc(OC)c1 | 0.0328
CCOC(=O)C1=C(C)NC(C)=C(C(=O)OCC)C1c1ccccc1/C=C/C(=O)OC(C)(C)C | -1.41
CCCCNc1cc(C(=O)O)cc(S(N)(=O)=O)c1Oc1ccccc1 | 0.3
CO[C@@]1(NC(=O)Cc2cccs2)C(=O)N2C(C(=O)O)=C(COC(N)=O)CS[C@@H]21 | 0.21

Set 3 — observed: enzyme activity; action: inhibitor; concentration: 0.5 µM; baseline: control
Target: Cyclin-dependent kinase 4, with cyclin D3 (CDK4, Homo sapiens, UniProt P11802)
UniProt P11802, sequence (whole entry, looked up): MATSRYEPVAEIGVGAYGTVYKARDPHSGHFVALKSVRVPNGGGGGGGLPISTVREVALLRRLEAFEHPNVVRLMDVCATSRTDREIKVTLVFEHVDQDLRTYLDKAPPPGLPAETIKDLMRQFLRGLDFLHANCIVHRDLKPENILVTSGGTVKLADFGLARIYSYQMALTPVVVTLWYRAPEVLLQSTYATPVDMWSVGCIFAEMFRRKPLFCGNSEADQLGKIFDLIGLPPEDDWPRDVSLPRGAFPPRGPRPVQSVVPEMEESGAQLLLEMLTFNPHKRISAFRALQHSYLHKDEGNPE
Compound | remaining activity
NCCNc1ncc(C(N)=O)c(Nc2cccc(C(F)(F)F)c2)n1 | 94.8%
Cc1ccc(Nc2nccc(N(C)c3ccc4c(C)n(C)nc4c3)n2)cc1S(N)(=O)=O | 96%
COc1ccc(C(=O)Nc2sc3c(c2C(N)=O)CCCC3)cc1OC | 98.8%
O=c1c2ccccc2[nH]c(=S)n1CCN1CCC(=C(c2ccc(F)cc2)c2ccc(F)cc2)CC1 | 99%
CNC(=O)c1cc(Oc2ccc(NC(=O)Nc3ccc(Cl)c(C(F)(F)F)c3)cc2)ccn1 | 114%
CCOC(=O)c1c(C)[nH]c(/C=C2\C(=O)Nc3ccccc32)c1C | 106%
C#Cc1cccc(Nc2ncnc3cc(OCCOC)c(OCCOC)cc23)c1 | 103%
N#CC(C#N)=C(N)/C(C#N)=C/c1ccc(O)cc1 | 97.1%
O=C1NC(=O)C(c2cn(CCCn3ccnc3)c3ccccc23)=C1Nc1ccccc1 | 91%
Cc1cccc(-c2[nH]c(C(C)(C)C)nc2-c2ccc3c(c2)OCO3)n1 | 102%
Oc1ccc(-c2nc(-c3ccncc3)c(-c3ccc(F)cc3)[nH]2)cc1 | 104%
COc1cc2ncnc(Nc3ccc(F)c(Cl)c3)c2cc1OCCCN1CCOCC1 | 101%
OCC(O)CCON=C1C(c2c(O)[nH]c3ccccc23)=Nc2ccccc21 (stereo not drawn) | 66.1%
O=C(Nc1cccc(Nc2cc(Nc3cccc(C(F)(F)F)c3)ncn2)c1)C1CC1 | 105%
COc1cc2nccc(Oc3ccc(NC(=S)NC(=O)c4ccccc4C)cc3)c2cc1OC | 93.4%

Set 4 — observed: cell-free assay; method: competition with immobilised ligand; concentration: 1 µM
Structure (SMILES): CN(C(=O)c1ccccc1)c1cc(N(C)c2ccc3c(c2)CCc2ccc(C(=O)NCCN4CCOCC4)cc2C3=O)ccc1F
target | remaining binding
CDK4 (Homo sapiens, UniProt P11802) | 91%
FES (Homo sapiens, UniProt P07332) | 89%
PI4KB (Homo sapiens, UniProt Q9UBF8) | 100%
PLK3 (Homo sapiens, UniProt Q9H4B4) | 100%
PIK3CA (Homo sapiens, UniProt P42336, E545K) | 82%
MAPK3 (Homo sapiens, UniProt P27361) | 88%
ANKK1 (Homo sapiens, UniProt Q8NFD2) | 97%
CDC42BPA (Homo sapiens, UniProt Q5VT25) | 100%

Repeated from above (set 2):
SMILES | log2 fold change
Nc1nc2c(ncn2CCC(CO)CO)c(=O)[nH]1 | -0.06
CC(=O)O[C@@]12CO[C@@H]1C[C@H](O)[C@@]1(C)C(=O)[C@H](O)C3=C(C)[C@@H](OC(=O)[C@H](O)[C@@H](NC(=O)OC(C)(C)C)c4ccccc4)C[C@@](O)([C@@H](OC(=O)c4ccccc4)[C@H]21)C3(C)C | -1.14
O=C(O)CCNC(=O)c1ccc(/N=N/c2ccc(O)c(C(=O)O)c2)cc1 | 0.17
CC(=O)[C@]1(O)Cc2c(O)c3c(c(O)c2[C@@H](O[C@H]2C[C@H](N)[C@H](O)[C@H](C)O2)C1)C(=O)c1ccccc1C3=O | -5.38
CC1=C(/C=C/C(C)=C/C=C/C(C)=C\C(=O)O)C(C)(C)CCC1 | 0.15
